# Results pooled from the literature.
# Numbered parts are unrelated; each lists some results of a single study. Substitutions count along the parent as printed.
# Sequence of UniProt Q6ZN16 (whole entry, looked up): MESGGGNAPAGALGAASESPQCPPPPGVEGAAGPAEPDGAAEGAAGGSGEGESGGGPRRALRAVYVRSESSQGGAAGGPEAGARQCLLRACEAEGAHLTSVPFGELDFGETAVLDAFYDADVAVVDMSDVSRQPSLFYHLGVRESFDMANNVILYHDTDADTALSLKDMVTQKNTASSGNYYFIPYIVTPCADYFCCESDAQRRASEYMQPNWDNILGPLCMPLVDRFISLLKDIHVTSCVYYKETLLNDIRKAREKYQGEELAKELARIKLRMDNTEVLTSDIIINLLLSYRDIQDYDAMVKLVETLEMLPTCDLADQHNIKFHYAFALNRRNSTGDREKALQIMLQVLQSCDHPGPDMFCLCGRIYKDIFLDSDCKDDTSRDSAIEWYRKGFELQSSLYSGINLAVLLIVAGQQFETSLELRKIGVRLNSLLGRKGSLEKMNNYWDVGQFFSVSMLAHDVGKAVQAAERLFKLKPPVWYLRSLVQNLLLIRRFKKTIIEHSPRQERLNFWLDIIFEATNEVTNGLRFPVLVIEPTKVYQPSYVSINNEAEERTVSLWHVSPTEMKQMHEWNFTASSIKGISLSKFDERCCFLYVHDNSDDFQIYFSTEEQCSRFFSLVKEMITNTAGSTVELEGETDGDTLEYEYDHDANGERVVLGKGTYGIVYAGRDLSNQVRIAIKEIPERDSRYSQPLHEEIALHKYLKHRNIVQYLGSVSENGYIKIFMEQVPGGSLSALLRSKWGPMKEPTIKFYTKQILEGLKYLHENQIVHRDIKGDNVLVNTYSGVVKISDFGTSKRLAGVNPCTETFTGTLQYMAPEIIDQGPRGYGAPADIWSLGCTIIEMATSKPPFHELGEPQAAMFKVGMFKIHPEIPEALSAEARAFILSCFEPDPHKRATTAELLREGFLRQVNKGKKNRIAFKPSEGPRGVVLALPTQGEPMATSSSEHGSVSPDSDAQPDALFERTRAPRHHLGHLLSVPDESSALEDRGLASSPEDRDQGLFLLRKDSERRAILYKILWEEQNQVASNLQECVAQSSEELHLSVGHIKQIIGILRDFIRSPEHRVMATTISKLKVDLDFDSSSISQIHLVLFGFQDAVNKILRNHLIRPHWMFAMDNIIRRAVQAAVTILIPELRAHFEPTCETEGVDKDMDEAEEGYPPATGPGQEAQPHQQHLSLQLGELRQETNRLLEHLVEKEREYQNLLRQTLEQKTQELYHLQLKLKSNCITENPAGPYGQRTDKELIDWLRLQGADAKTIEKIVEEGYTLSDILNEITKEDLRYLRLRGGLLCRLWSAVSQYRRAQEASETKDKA

# Series 1 — technique: RNAcompete; form: RNA; medium: in vitro; concentration: 20 nM; notes: 7-mer, probes averaged, single round; relative to: mean of 7-mers; reading: higher = stronger binding
# Target: PABPC1L2, full length, GST fusion (mouse, UniProt A0ABA7IW68)
# Construct (chain): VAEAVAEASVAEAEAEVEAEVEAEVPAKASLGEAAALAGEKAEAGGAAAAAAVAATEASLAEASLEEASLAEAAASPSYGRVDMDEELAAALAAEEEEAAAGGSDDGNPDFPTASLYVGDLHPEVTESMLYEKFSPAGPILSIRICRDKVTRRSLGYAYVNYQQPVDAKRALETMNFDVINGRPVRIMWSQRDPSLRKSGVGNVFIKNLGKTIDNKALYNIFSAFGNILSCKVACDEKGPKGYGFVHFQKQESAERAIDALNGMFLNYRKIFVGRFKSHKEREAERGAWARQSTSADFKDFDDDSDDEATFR
Sequence,7-mer Z-score
GUUUCUA,-0.329
AAUCAUC,-0.0192
GCCCAAC,-0.344
UCAGGUU,-0.278
AACUGAG,0.0569
CAUGCAC,-0.012
AACGCUC,-0.00289
AACUCGG,-0.0337

# Series 2 — effect on: peptide-MHC binding; form: peptide; reading: direction not given
# Target: HLA class I histocompatibility antigen, A alpha chain, allele A*80:01 (Homo sapiens, UniProt P04439)
Molecule,z-score of log IC50
GAWCYDYTV,0.38
FVMPIFEQI,0.38
FPSNMMVVT,0.38
KVVPRRKAK,0.38
FHIVNQESL,0.38
CLSDEINHV,0.38
FVKDWMDRI,0.38
ARLSSPIVL,0.38
AMDTHLYFE,0.38
FLRKNQRAL,0.38
GKLDPTNTL,0.38
FWAWSVLRV,0.38
FGAAVSLLF,0.38
FSDLCNFLI,0.38
DHIPIINTL,0.38
FRYEFTAPF,0.38
ATRSHRPLI,0.38
FTDNNELEF,0.38
FPRYPLNVL,0.38
DFISMYFPW,0.38

# Series 3 — target: CCNF, cyclin fold, Cln2 fusion (human); technique: yeast growth competition, sequencing; medium: yeast; notes: strong parent motif; relative to: not given; reading: higher = stronger binding; starting sequence: viral docking peptide; YKVKRRLVFGADD
Change,normalised enrichment score
A11K,8.72
K2V,8.58
K2M,8.91
L7R,1.1
A11D,8.45
A11M,8.94
K4F,7.49
K4R,8.71

# Series 4 — technique: competition protein-binding microarray; form: double-stranded DNA, one strand shown; medium: in vitro; concentration: 2 µM; added: Pho4 competitor, 0.05 µM; reading: higher = stronger binding; shared flanks, not repeated: … GTCTTGATTCGCTTGACGCTGCTG
# Target: Centromere-binding protein 1, full length, His-tagged (CBF1, Saccharomyces cerevisiae, UniProt P17106, residues 1-351)
# Sequence of UniProt P17106 (whole entry, looked up): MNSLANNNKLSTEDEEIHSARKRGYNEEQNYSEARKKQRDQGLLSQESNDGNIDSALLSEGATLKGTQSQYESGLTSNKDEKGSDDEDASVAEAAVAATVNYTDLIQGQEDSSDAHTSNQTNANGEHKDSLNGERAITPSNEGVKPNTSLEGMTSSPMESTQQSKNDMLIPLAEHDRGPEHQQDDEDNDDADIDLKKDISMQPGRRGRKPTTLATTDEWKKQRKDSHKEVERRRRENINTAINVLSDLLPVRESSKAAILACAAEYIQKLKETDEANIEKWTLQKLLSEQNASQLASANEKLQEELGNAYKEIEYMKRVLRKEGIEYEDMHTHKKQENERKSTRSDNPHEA
# Notes: whole 60-bp probe, lowest competitor level
Sequence,fluorescence intensity
AAAGCGGTAATTTGTGCTGTGGGTGCAGATATCTAT,75.8 a.u.
TAACTACCGCCCTAGTTCGTGCTTTCATTTTTTTGT,71 a.u.
ATCTAATTGAACATTCTCGTGCGATTAAACGTCATT,103 a.u.
AAAAAAATAAATGAACACATGGAAATAAGTCAAGGA,136 a.u.
CGTCCTAGTGATTTTCACGTGGGCTCCATGAGGAAG,876 a.u.
AAAGCGGTAATTTGGCCAGTGGGTGCAGATATCTAT,60.6 a.u.
TTCTTGGAGTCGTAGAACATGACAACCGGGGGAGCA,67.4 a.u.
AGGGAACAGTGCCTACACGTGGCTTGCAATCCACTA,758 a.u.

# Single results of other studies
Compound,target,effect on,technique,concentration,measurement,result
O=C(NCc1ncc(C(F)(F)F)cc1Cl)c1ccc2c(c1)C1(CCS(=O)(=O)CC1)[C@H](C1CC1)N2S(=O)(=O)c1ccc(F)cc1,"Mitogen-activated protein kinase kinase kinase 15 (MAP3K15, Homo sapiens, UniProt Q6ZN16)",cell-free assay,competition with immobilised ligand,1 µM,remaining binding,96%
